# Measurements gathered from unrelated publications.
# Each line is one published result; not all experiments were run side by side.
SMILES,assay,system,conditions,AUC(0-inf)
O=C(CCCCC[N+]#[C][99Tc-5]([C]#[N+]CCCCCC(=O)N[C@H]1C(O)O[C@H](CO)[C@@H](O)[C@@H]1O)([C]#[N+]CCCCCC(=O)N[C@H]1C(O)O[C@H](CO)[C@@H](O)[C@@H]1O)([C]#[N+]CCCCCC(=O)N[C@H]1C(O)O[C@H](CO)[C@@H](O)[C@@H]1O)([C]#[N+]CCCCCC(=O)N[C@H]1C(O)O[C@H](CO)[C@@H](O)[C@@H]1O)[C]#[N+]CCCCCC(=O)N[C@H]1C(O)O[C@H](CO)[C@@H](O)[C@@H]1O)N[C@H]1C(O)O[C@H](CO)[C@@H](O)[C@@H]1O (stereo partly drawn),two-compartment model,"CD-1 mouse, blood",dose not given,261 %ID/g·min
Cc1nc(NC(=O)N2CCC[C@H]2C(N)=O)sc1-c1csc(C(C)(C)C)n1,,"CD-1 mouse, male, plasma","intraperitoneal, 10 mg/kg",6.81 µM·h
NC(=O)c1ccc(C(=O)NOCc2ccc(Sc3cccc(Cl)c3)c(C(F)(F)F)c2)cc1,,"male ICR mouse, plasma","oral, 60 mg/kg",8170 ng·h/mL
CN1CC[C@H](c2c(O)cc(O)c3c(=O)cc(/C=C/c4c(Cl)cccc4Cl)oc23)[C@H](O)C1,,"male BALB/c mouse, plasma","oral, 50 mg/kg",3710 ng·h/mL
CC/C=C\C/C=C\C/C=C\C/C=C\C/C=C\C/C=C\CCC(=O)Nc1ccn(C2OC(CO)C(O)C2(F)F)c(=O)n1 (stereo not drawn),,"BALB/c mouse, pancreas","intravenous, 75 mg/kg",2410 µg·min/g
O=C(OCc1cccc(O)c1O)c1ccc(O)c(CO)c1,,"mouse CD1, male, plasma","intravenous bolus, 10 mg/kg, 0 to 30 min",1760 ng·h/mL
C#CCN(CCCNC(=O)CCCCC[N+]1=C(/C=C/C2=C(Cl)C(=C/C=C3\N(CCCCCC(=O)[O-])c4ccccc4C3(C)C)/CCC2)C(C)(C)c2ccccc21)CCCOc1ccc(Cl)cc1Cl,,"C57BL mouse, plasma","intravenous, 5 mg/kg",833000 ng·h/mL
CC(C)(C)NCC(SS(=O)(=O)O)c1ccccc1 (stereo not drawn),,"Swiss Webster CFW mouse, female, plasma","oral, 100 mg/kg, from 0 h to infinity",1450 ng·h/mL
Cc1cccc(O[C@H]2CCC[C@@H](C(C)CNCc3ccncc3)C2)c1 (relative stereo),,"C57BL/6 mouse female, plasma","oral, 25 mg/kg",2770 ng·h/mL

# Excerpt of the above:
SMILES,assay,system,conditions,AUC(0-inf)
NC(=O)c1ccc(C(=O)NOCc2ccc(Sc3cccc(Cl)c3)c(C(F)(F)F)c2)cc1,,"male ICR mouse, plasma","oral, 60 mg/kg",8170 ng·h/mL
